Measured values pooled from the literature.
Lines come from different studies, so protocols differ. ± marks the error that the study gave.
EPHX2: Bifunctional epoxide hydrolase 2 (EPHX2, Homo sapiens, UniProt P34913)
CHRM2: Muscarinic acetylcholine receptor M2 (CHRM2, Homo sapiens, UniProt P08172)
CES2: Cocaine esterase (CES2, Homo sapiens, UniProt O00748)

SMILES	target	test	test system	setting	scale	quantity	result
CC12CC3CC(C)(C1)CC(NC(=O)Nc1ccc(C(=O)N4CCCC(C(N)=O)C4)cc1)(C3)C2 (stereo not drawn)	EPHX2					lipophilic ligand efficiency	7.08
CC(CCC(=O)SCCNC(=O)CCNC(=O)C(O)C(C)(C)CO)C1CCC2C3C(O)CC4CC(O)CCC4(C)C3CC(O)C12C (stereo not drawn)	Pantetheinase (VNN1, Homo sapiens, UniProt O95497)	hydrolysis, substrate, item: pantothenic acid		15 min, 37 °C		Km	39.8 ± 20.3 µM
[64Cu+2].c1ccc(CNCc2ccc(CN3CCCN4CCNCCCN(CC4)CC3)cc2)nc1	CXCR4		NOD/SCID mouse, U87 and U87-stb-CXCR4 xenografts, stomach	iv, 90 min, ex vivo		tissue uptake	1.86 ± 0.21 %ID/g
CC(=O)NC1CCN(C(=O)c2ccc(NC(=O)NC34CC5CC(C)(CC(C)(C5)C3)C4)cc2)CC1	EPHX2					lipophilic ligand efficiency	6.73
O=c1cc(-c2ccc(O)cc2)oc2c([C@@H]3OC[C@@H](O)[C@H](O)[C@H]3O)c(O)c([C@@H]3O[C@H](CO)[C@@H](O)[C@H](O)[C@H]3O)c(O)c12	SLC5A2 (Homo sapiens, UniProt P31639)	inhibitor	COS-7 expressing SLC5A2	50 µM	relative to: control	1-NBDG uptake	35.9 ± 1.81%
C=CCn1c(=O)c2ccccc2n2c(SCC(=O)Nc3ccc(NC(C)=O)cc3)nnc12	CHRM2	ERK1/2 phosphorylation, antagonist	human cells	3 µM, together with: [3H]NMS, iperoxo at EC80		pA2	10.8 ± 0.18
C=CC(=O)N1C[C@H](C)N(c2nc(OC[C@@]34CCCN3C[C@H](F)C4)nc3c(F)c(-c4ccc(F)c5sc(N)c(C#N)c45)c(C(F)(F)F)cc23)C[C@H]1C	GTPase KRas (KRAS, Homo sapiens, UniProt P01116, G12C)	cysteine-proteome mass spectrometry	NCI-H358	20 nM, 2 h		decrease of Cys12 peptide	98.9%
Cc1cc(C(=O)Nc2nc3cccc(C)c3n2[C@H]2CCCCN(C(=O)/C=C/CN(C)C)C2)ccn1	CDC2-like kinase 1 (Trypanosoma brucei brucei, UniProt Q382U0)	enzyme activity, time-dependent inhibitor, ADP-Glo				time to IC50 plateau	~20 min
Nc1ncnc2c1ncn2C1OC(COP(=O)(O)OP(=O)(O)OCC2OC(O)C(O)C2O)C(O)C1O (stereo not drawn)	TRPM2 (Nematostella vectensis, UniProt A7T1N0)	activator, inside-out patch clamp	Xenopus oocytes, wild-type TRPM2	together with: 125 µM Ca2+ and 2.5 µM PIP2		Hill coefficient	1.7 ± 0.2
S=C(Nc1ccc(Cl)cc1)Nc1cccc2[nH]ccc12	Alpha-synuclein (SNCA, Homo sapiens, UniProt P37840)	fibril formation, ThT fluorescence kinetics		100 µM, α-syn 2 µM, plateau phase	relative to: DMSO vehicle	maximum ThT fluorescence	8 ± 1%
CSCC[C@H](NC(=O)[C@H](CO)NC(=O)[C@@H](NC(=O)[C@H](CCC(N)=O)NC(=O)[C@@H](CCCNC(=N)N)NC(=O)[C@@H](CCCNC(=N)N)NC(=O)[C@@H](CCCCN)NC(=O)[C@@H](CCCNC(=N)N)NC(C)=O)[C@@H](C)O)C(=O)N[C@H](C(=O)N[C@@H](CC(=O)O)C(=O)N[C@@H](Cc1ccccc1)C(=O)N[C@@H](Cc1ccc(O)cc1)C(=O)N[C@@H](Cc1c[nH]cn1)C(=O)N[C@@H](CO)C(=O)N[C@H](CCCCN)C(=O)N[C@H](CCCNC(=N)N)C(=O)N[C@H](CCCNC(=N)N)C(N)=O)[C@@H](C)O	PCNA (Homo sapiens, UniProt P12004)	isothermal titration calorimetry		concentration not given, pH 7.4, 25 °C, 0 mM NaCl, together with: p21 peptide		binding enthalpy ΔH	-17.7 ± 0.478 kcal/mol
O=c1[nH]c(N2CCC3(CC2)CN(CCO)c2cc(F)cc(F)c23)nc2c1CCCC2	PARP1 (Homo sapiens, UniProt P09874)	inhibitor, ELISA		up to 20 µM		enzyme activity	no effect
CCSc1nc2c([nH]1)c(=S)n(C)c(=S)n2C	PGR (Homo sapiens, UniProt P06401)	reporter gene, antagonist, MMTV-luciferase	T47D/A1-2	10 µM, 24 h, together with: 5 nM progesterone	relative to: maximal activity	remaining activity	123%
O=C(O)c1ccc(/C=C2\SC(=S)N(Cc3cccc(C(F)(F)F)c3)C2=O)cc1	NLRP1 (Homo sapiens, UniProt Q9C000)	inhibitor		1 µM		ATPase activity	no effect
O=C(Nc1ccccc1O)c1ccc(-c2ccc(Cl)cc2Cl)o1	Heat shock protein 90, N-terminal domain (Plasmodium falciparum, UniProt Q8IC05)	binding, SPR				kon	95300 M⁻¹ s⁻¹
CSCC[C@H](NC(=O)[C@H](CCCCN)NC(=O)[C@@H]1CCCN1C(=O)[C@H](CCC(=O)O)NC(=O)[C@H](CO)NC(=O)[C@H](CCCNC(=N)N)NC(=O)[C@H](C)NC(=O)[C@H](CS)NC(=O)CNC(=O)[C@@H](NC(=O)[C@@H]1CCCN1C(=O)[C@H](CC(N)=O)NC(=O)[C@@H](N)C(C)C)[C@@H](C)O)C(=O)N[C@@H](CO)C(N)=O	WDR5 (Homo sapiens, UniProt P61964)	binding, BLI				koff	0.0053 s⁻¹
COc1cc(C(=O)NC2CCC(N3CCN(CC4CCC5(CCCC5)C4)CC3)CC2)c(F)cc1Nc1ncc2c(n1)N(C1CCCC1(F)F)CC(F)(F)C(=O)N2C (stereo not drawn)	EPHB4 (Homo sapiens, UniProt P54760)	cell-free assay, TR-FRET		10 µM		inhibition	2.77%

SMILES	target	test	test system	setting	scale	quantity	result
N=C(N)NCCC[C@H](NC(=O)[C@H](CC(=O)O)NC(=O)[C@@H]1CSCCCC(=O)NCC(=O)N[C@@H](Cc2c[nH]cn2)C(=O)N[C@H](Cc2ccccc2)C(=O)N[C@@H](CCCNC(=N)N)C(=O)N[C@@H](Cc2c[nH]c3ccccc23)C(=O)N1)C(=O)N[C@@H](Cc1ccccc1)C(=O)NCC(N)=O	MC5R (Homo sapiens, UniProt P33032)	cAMP accumulation, agonist	HEK293 expressing MC5R	10 µM	relative to: MT-II	activation	91%
CCCC[C@@H]1NC(=O)[C@H](Cc2ccc(O)cc2)NC(=O)[C@@H]2CCCN2C(=O)[C@H](CC(=O)O)NC(=O)[C@H](C)NC(=O)[C@H](Cc2ccccc2)NC(=O)[C@@H]2CSCCC(=O)N3CN(CN(C3)C(=O)CCSC[C@@H](C(=O)N[C@@H](C)C(N)=O)NC1=O)C(=O)CCSC[C@H](NC(C)=O)C(=O)N[C@@H](CC(C)(C)C)C(=O)N1CCC[C@H]1C(=O)N[C@@H](CCC(=O)O)C(=O)N[C@H](CCCCNC(=O)CCc1cn(CCOCCOCCOCCN(CCOCCOCCOCCC(=O)N[C@H]3CSCCC(=O)N4CN5CN(C4)C(=O)CCSC[C@H](NC(=O)[C@@H](CC(=O)O)NC(=O)[C@H](Cc4cccc6ccccc46)NC(=O)[C@@H]4CCCN4C3=O)C(=O)N[C@@H](CCSC)C(=O)N[C@@H](CCCCNC(=N)N)C(=O)N[C@@H](CC(=O)O)C(=O)N[C@@H](Cc3c[nH]c4ccccc34)C(=O)N[C@@H](CO)C(=O)N[C@@H]([C@@H](C)O)C(=O)N3CCC[C@H]3C(=O)N3C[C@H](O)C[C@H]3C(=O)N[C@@H](Cc3c[nH]c4ccccc34)C(=O)N[C@H](C(N)=O)CSCCC5=O)CCOCCOCCOCCn3cc(CCC(=O)NCCCC[C@H]4NC(=O)[C@H](CCC(=O)O)NC(=O)[C@@H]5CCCN5C(=O)[C@H](CC(C)(C)C)NC(=O)[C@@H](NC(C)=O)CSCCC(=O)N5CN6CN(C5)C(=O)CCSC[C@H](NC(=O)[C@H](Cc5ccc(O)cc5)NC(=O)[C@@H]5CCCN5C4=O)C(=O)N[C@@H](Cc4ccccc4)C(=O)N[C@@H](C)C(=O)N[C@@H](CC(=O)O)C(=O)N4CCC[C@H]4C(=O)N[C@@H](Cc4ccc(O)cc4)C(=O)N[C@@H](CCCC)C(=O)N[C@H](C(=O)N[C@@H](C)C(N)=O)CSCCC6=O)nn3)nn1)C(=O)N1CCC[C@H]1C(=O)N[C@@H](Cc1ccc(O)cc1)C(=O)N2	Nectin-4 (Homo sapiens, UniProt Q96NY8)	receptor occupancy, flow cytometry	A549 (target-negative)	concentration not given, 1 h		binding	no binding
COc1ccc(C2=[N+]3C(=C(CCCCc4cn(C[C@@H]5[C@@H](O)[C@H](O)[C@@H](O)[C@@H]6O[C@H]56)nn4)c4ccc(-c5ccc(OC)cc5)n4[B-]3(F)F)C=C2)cc1	GBA1 (Homo sapiens, UniProt P04062, R534H)	thermal stability, tryptophan fluorescence		saturating, pH 5.2		Tm increase	21.7 °C
CC1=C(/C=C/C(C)=C/C=C/C(C)=C/C=O)C(C)(C)CCC1	CNGA1 (Bos taurus, UniProt Q00194)	ion current, inhibitor, outside-out patch clamp		400 nM, not at steady state, together with: cGMP 2 mM		time constant of inhibition	6750 s
O=C(NO)c1ccc(Cn2sc3ccccc3c2=O)cc1	HDAC6 (Homo sapiens, UniProt Q9UBN7)	enzyme activity		10 nM		Vmax	6.8 nM/min/mg
CCc1nc2cc3ccccc3cc2cc1C(=O)N1CCC[C@H]1C(=O)N[C@@H](C/C=C\C[C@H](NC(=O)[C@@H]1CCCN1C(=O)c1cc2cc3ccccc3cc2nc1CC)C(=O)N[C@@H](CCCCN)C(=O)NCCCN)C(=O)N[C@@H](CCCCN)C(=O)NCCCN	CUG-CAG duplex RNA	SPR			relative to: compound over E isomer	binding ratio	~4.6 fold
CNc1ccccc1C(=O)O[C@H]1C[C@H](n2cnc3c(N)ncnc32)O[C@@H]1COP(=O)(O)OP(=O)(O)O	Unconventional myosin-Va (Gallus gallus, UniProt Q02440, D297C/G292C/I296C/S293C/V295G)	stopped-flow FRET, linear fit intercept		10 °C, together with: MgCl2 10 mM		dissociation rate constant	1.76 ± 0.3 s⁻¹
CC(=O)N[C@@H](Cc1ccc(O)cc1)C(=O)N[C@H](C(=O)N[C@@H](C)C(=O)N[C@@H](CC(=O)O)C(=O)Nc1ccc2c(C)cc(=O)oc2c1)C(C)C	Caspase-5 (CASP5, Homo sapiens, UniProt P51878)	substrate cleavage, substrate, fluorogenic AMC release		enzyme 0.25 activity units/µL		Vmax	556 ± 19.6 RFU/min
CCCCCCCC(=O)OC(C#N)c1ccc2cc(OC)ccc2c1 (racemic)	CES2	substrate		50 µM, pH 8, 37 °C, enzyme purity 4%		specific activity	1200 pmol/min/µg
CCCCCCCCOP(=O)(CCCCCCCC)O[C@@H]1O[C@H](CO)[C@@H](O)[C@H](O)[C@H]1F (mixture of isomers)	GBA1 (Homo sapiens, UniProt P04062)	enzyme activity, irreversible inhibitor		pH 5.5, 37 °C, together with: 2,4-dinitrophenyl beta-D-glucopyranoside		kinact/Ki	182 M⁻¹ s⁻¹
Cc1cc(=O)oc2cc(NC(=O)CCCCCCCC(=O)NO)ccc12	HDAC8 (Homo sapiens, UniProt Q9BY41)	ITC	Tris-HCl buffer	pH 7.5, 25 °C		ΔG	-8.7 ± 0.1 kcal/mol
NC(=O)C1CCCCNC(=O)C(CCCNC(=O)c2cnccn2)NC(=O)C(Cc2ccco2)NC(=O)C(CC2CC2)NC(=O)C=CC(=O)N1 (stereo not drawn)	MAP2K6 (Homo sapiens, UniProt P52564)	DNA-templated library selection		one selection round		enrichment factor	1
[3H]CC([3H])C(=O)NCc1cc(C(=O)NCCN2CCC(N3CCC(n4c(=O)[nH]c5ccccc54)CC3)CC2)cc(C(=O)NCCN2CCN(CCCCC3CCN(CC(=O)N4c5ccccc5NC(=O)c5ccccc54)CC3)CC2)c1 (stereo not drawn)	CHRM2	radioligand binding	CHO cells expressing human M2 receptor, cell homogenate			dissociation plateau	~47%
CNC(=O)C1CCCN(C(=O)c2ccc(NC(=O)NC34CC5CC(C)(CC(C)(C5)C3)C4)cc2)C1 (stereo not drawn)	EPHX2					lipophilic ligand efficiency	6.61
CCCCCCCCCCCCCCCC(=O)N[C@@H](CCCCN)C(=O)N[C@@H](CCCCN)C(=O)N[C@@H](CO)C(=O)N[C@@H](CCCNC(=N)N)C(=O)N[C@@H](C)C(=O)N[C@@H](CC(C)C)C(=O)N[C@@H](Cc1ccccc1)C(N)=O	F2R (Homo sapiens, UniProt P25116)	antagonist, light transmission aggregometry	ex vivo human platelets	0.5 mg/kg, 14 days, together with: SFLLRN 5 µM	relative to: 24 h value	recovery of platelet aggregation	50%
COc1ccc(NC(=O)Cc2ccccc2)c(C)n1	CES2	substrate		50 µM, pH 8, 37 °C, enzyme purity 4%		specific activity	< 1 pmol/min/µg

Excerpt of the above:
SMILES	target	test	test system	setting	scale	quantity	result
NC(=O)C1CCCCNC(=O)C(CCCNC(=O)c2cnccn2)NC(=O)C(Cc2ccco2)NC(=O)C(CC2CC2)NC(=O)C=CC(=O)N1 (stereo not drawn)	MAP2K6 (Homo sapiens, UniProt P52564)	DNA-templated library selection		one selection round		enrichment factor	1
[3H]CC([3H])C(=O)NCc1cc(C(=O)NCCN2CCC(N3CCC(n4c(=O)[nH]c5ccccc54)CC3)CC2)cc(C(=O)NCCN2CCN(CCCCC3CCN(CC(=O)N4c5ccccc5NC(=O)c5ccccc54)CC3)CC2)c1 (stereo not drawn)	CHRM2	radioligand binding	CHO cells expressing human M2 receptor, cell homogenate			dissociation plateau	~47%
CNC(=O)C1CCCN(C(=O)c2ccc(NC(=O)NC34CC5CC(C)(CC(C)(C5)C3)C4)cc2)C1 (stereo not drawn)	EPHX2					lipophilic ligand efficiency	6.61
CCCCCCCCCCCCCCCC(=O)N[C@@H](CCCCN)C(=O)N[C@@H](CCCCN)C(=O)N[C@@H](CO)C(=O)N[C@@H](CCCNC(=N)N)C(=O)N[C@@H](C)C(=O)N[C@@H](CC(C)C)C(=O)N[C@@H](Cc1ccccc1)C(N)=O	F2R (Homo sapiens, UniProt P25116)	antagonist, light transmission aggregometry	ex vivo human platelets	0.5 mg/kg, 14 days, together with: SFLLRN 5 µM	relative to: 24 h value	recovery of platelet aggregation	50%
COc1ccc(NC(=O)Cc2ccccc2)c(C)n1	CES2	substrate		50 µM, pH 8, 37 °C, enzyme purity 4%		specific activity	< 1 pmol/min/µg
